{"data": "Values quoted from earlier work, collected from citations in different studies", "note": "Each numbered part shows a few of the values that one paper quotes. ± marks the error that the study gave.", "sequence of UniProt Q9JLB5 (whole entry, looked up)": "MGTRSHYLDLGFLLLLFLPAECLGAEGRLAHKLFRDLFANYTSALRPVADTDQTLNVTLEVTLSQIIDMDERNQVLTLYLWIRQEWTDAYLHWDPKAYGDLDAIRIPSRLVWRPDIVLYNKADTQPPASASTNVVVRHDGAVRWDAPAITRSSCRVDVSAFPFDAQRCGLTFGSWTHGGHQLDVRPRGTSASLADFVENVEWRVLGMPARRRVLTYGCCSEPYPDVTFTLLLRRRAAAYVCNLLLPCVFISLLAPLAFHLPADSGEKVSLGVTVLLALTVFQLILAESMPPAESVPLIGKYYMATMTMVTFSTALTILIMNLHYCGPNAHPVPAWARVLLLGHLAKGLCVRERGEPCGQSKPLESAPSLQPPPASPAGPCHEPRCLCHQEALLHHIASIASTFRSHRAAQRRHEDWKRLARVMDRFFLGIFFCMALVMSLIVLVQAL", "sequence of UniProt P43144 (whole entry, looked up)": "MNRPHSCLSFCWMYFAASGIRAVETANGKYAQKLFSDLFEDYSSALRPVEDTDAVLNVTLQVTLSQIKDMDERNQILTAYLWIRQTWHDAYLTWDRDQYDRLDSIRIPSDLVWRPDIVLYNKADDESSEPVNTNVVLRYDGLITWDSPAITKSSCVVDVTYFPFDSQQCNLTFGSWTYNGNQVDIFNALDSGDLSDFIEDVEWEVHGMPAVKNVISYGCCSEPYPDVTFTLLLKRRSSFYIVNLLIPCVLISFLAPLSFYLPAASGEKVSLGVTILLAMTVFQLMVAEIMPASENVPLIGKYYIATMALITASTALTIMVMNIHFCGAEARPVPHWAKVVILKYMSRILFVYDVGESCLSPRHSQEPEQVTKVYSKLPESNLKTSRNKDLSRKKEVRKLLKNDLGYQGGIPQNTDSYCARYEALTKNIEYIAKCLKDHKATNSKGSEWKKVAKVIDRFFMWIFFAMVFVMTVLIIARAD", "sequence of UniProt P03372 (whole entry, looked up)": "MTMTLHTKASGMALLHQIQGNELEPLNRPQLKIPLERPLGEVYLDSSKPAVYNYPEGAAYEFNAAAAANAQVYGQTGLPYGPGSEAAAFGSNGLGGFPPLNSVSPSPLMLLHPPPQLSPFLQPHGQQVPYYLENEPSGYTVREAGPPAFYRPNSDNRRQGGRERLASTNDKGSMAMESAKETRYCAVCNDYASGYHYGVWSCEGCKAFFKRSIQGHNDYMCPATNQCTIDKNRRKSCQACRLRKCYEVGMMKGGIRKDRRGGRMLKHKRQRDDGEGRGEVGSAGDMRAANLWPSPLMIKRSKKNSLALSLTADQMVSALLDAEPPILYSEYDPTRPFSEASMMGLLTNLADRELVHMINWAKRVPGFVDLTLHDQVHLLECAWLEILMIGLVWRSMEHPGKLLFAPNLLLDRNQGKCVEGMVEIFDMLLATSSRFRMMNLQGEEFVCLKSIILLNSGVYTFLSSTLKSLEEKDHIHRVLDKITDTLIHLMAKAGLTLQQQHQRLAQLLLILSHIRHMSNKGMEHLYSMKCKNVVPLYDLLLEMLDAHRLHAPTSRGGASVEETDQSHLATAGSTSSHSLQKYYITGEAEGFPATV", "sequence of UniProt Q9ZMY2 (whole entry, looked up)": "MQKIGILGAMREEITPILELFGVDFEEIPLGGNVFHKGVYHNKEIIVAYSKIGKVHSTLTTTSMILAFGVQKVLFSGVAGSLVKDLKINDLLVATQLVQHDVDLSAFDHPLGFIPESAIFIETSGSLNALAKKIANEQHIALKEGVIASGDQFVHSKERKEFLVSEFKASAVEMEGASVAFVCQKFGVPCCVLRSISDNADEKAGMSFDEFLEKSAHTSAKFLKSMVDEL", "sequence of UniProt O75469 (whole entry, looked up)": "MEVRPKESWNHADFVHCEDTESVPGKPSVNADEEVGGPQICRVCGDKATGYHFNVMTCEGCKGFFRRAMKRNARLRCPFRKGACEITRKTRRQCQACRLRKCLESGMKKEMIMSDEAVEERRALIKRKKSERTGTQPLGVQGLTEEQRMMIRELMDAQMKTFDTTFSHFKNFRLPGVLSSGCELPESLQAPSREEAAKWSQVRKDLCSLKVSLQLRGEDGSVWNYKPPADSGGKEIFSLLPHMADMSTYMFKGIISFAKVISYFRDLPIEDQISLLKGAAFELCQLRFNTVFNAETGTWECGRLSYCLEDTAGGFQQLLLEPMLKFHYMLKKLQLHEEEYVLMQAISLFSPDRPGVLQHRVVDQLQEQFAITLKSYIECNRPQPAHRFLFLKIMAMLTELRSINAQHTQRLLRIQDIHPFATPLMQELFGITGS"}
{"data": "Sample 1", "target": "HLA class I histocompatibility antigen, A alpha chain, allele A*26:03 (Homo sapiens, UniProt P04439)", "effect on": "peptide-MHC binding", "form": "peptide"}
{"Molecule": "IQFMHEQGY", "IC50 [µM]": "> 20"}
{"Molecule": "FEIGNGDAG", "IC50 [µM]": "> 20"}
{"Molecule": "EIEIEKNKK", "IC50 [µM]": "> 20"}
{"Molecule": "QGKQHLHSL", "IC50 [µM]": "> 20"}
{"Molecule": "EYYFRNEVF", "IC50 [µM]": "> 20"}
{"Molecule": "TESDAIRTL", "IC50 [µM]": "> 20"}
{"Molecule": "IFLIITKVF", "IC50 [µM]": "> 20"}
{"Molecule": "ESIDDAAGE", "IC50 [µM]": "> 20"}
{"Molecule": "SFSFGGFTF", "IC50 [µM]": "> 20"}
{"Molecule": "LYNTVATLY", "IC50 [µM]": 20}
{"Molecule": "REVFDYLLP", "IC50 [µM]": "> 20"}
{"Molecule": "NRWKSWFSY", "IC50 [µM]": "> 20"}
{"Molecule": "ETIGLVRAL", "IC50 [µM]": 0.001}
{"Molecule": "NYFNRMFHF", "IC50 [µM]": "> 20"}
{"Molecule": "CVFKFIVAK", "IC50 [µM]": "> 20"}
{"Molecule": "TIHLATAPK", "IC50 [µM]": "> 20"}
{"Molecule": "DVRPRHPGY", "IC50 [µM]": 0.368}
{"Molecule": "WEITYLGTT", "IC50 [µM]": "> 20"}
{"Molecule": "REFEAQNVP", "IC50 [µM]": "> 20"}
{"Molecule": "NQECWDSVF", "IC50 [µM]": "> 20"}
{"Molecule": "NRLKPRDFK", "IC50 [µM]": "> 20"}
{"Molecule": "CFMYSDFHF", "IC50 [µM]": "> 20"}
{"Molecule": "ETRYSWAIL", "IC50 [µM]": 0.454}
{"Molecule": "EYKKFIATF", "IC50 [µM]": "> 20"}
{"Molecule": "ILRPLGIEY", "IC50 [µM]": "> 20"}
{"data": "Mixed results", "TYMS": "Thymidylate synthase (TYMS, Homo sapiens, UniProt P04818)", "sequence of UniProt P04818 (whole entry, looked up)": "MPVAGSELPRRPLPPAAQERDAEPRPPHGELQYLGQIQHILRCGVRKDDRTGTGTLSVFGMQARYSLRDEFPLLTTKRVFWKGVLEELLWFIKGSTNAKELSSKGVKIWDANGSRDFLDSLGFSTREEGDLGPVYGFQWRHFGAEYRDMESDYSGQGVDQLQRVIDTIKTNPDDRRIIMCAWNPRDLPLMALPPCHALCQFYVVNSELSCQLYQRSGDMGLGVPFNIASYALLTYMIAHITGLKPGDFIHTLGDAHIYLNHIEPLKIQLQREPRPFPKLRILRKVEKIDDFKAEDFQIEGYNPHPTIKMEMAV"}
{"SMILES": "C=C(CC(C)(C)c1ccc(O)cc1)c1ccc(O)cc1", "target or system": "MCF-7 ERE-luciferase", "assay": "reporter gene, agonist", "how to read": "relative to: compound over bisphenol A", "endpoint": "relative potency", "result": "200 fold"}
{"SMILES": "CN(C(=O)n1cnc(-c2ccc[n+]([O-])c2)c1)C1CCCCC1", "system": "dogs", "setting": "13 weeks repeated daily dosing", "endpoint": "NOAEL", "result": "20 mg/kg/day"}
{"SMILES": "CCOC(=O)C1=C[C@@H](OC(CC)CC)[C@H](NC(C)=O)[C@@H](N)C1", "system": "rats", "setting": "intravenous, 10 mg/kg", "endpoint": "clearance", "result": "30 mL/min/kg"}
{"SMILES": "CN1CCc2[nH]c3ccccc3c2CC1", "target or system": "Nicotinic acetylcholine receptor alpha9/alpha10 (Rattus norvegicus, UniProt P43144+Q9JLB5)", "assay": "inhibitor", "setting": "added: 10 µM acetylcholine", "endpoint": "IC50", "result": "4.2 ± 0.2 µM"}
{"SMILES": "COc1ccc(C[C@@H](C)[C@@H](C)Cc2ccc(OC)c(OC)c2)cc1OC", "system": "human, recurrent high-grade glioma", "setting": "intravenous, dose not given", "endpoint": "median overall survival", "result": "5.9 months"}
{"SMILES": "CN(Cc1ccc(S(=O)(=O)N2CCOCC2)cc1)c1ccc2c3c(cccc13)C(N)=N2", "target or system": "TYMS", "endpoint": "Kd", "result": "0.012 µM"}
{"SMILES": "O=C(O)C(F)(F)C(F)(F)C(F)(F)C(F)(F)C(F)(F)C(F)(F)C(F)(F)C(F)(F)C(F)(F)F", "target or system": "Estrogen receptor (ESR1, Homo sapiens, UniProt P03372)", "assay": "antagonist, beta-lactamase reporter", "setting": "Tox21 screen", "endpoint": "IC50", "result": "17.4 µM"}
{"SMILES": "C[S+]([O-])CCCCN=C=S (centres unmarked)", "target or system": "NR1I2 (Homo sapiens, UniProt O75469)", "endpoint": "IC50", "result": "16 µM"}
{"SMILES": "COc1cc(/C=C/c2ccc(OC)cc2OC)cc(OC)c1", "target or system": "CYP1A2 human", "assay": "enzyme activity, inhibitor", "endpoint": "IC50", "result": "3.1 µM"}
{"SMILES": "C=C(C)[C@@H]1CCC(C)=C[C@H]1c1c(O)cc(CCCCC)cc1O", "target or system": "CYP2C19, human", "assay": "enzyme activity, inhibitor", "system": "human liver microsomes", "setting": "10 µM", "endpoint": "inhibition", "result": "inhibited"}
{"SMILES": "CCC(=O)n1cc2c3c(cccc31)C1=C[C@@H](C(=O)N(CC)CC)CN(C)[C@@H]1C2", "assay": "head-twitch response, agonist", "system": "C57BL/6J mice male", "setting": "literature value", "endpoint": "ED50", "result": "350 nmol/kg"}
{"SMILES": "CNCc1ccc(-c2cc(-c3nc(-c4ccc(S(=O)(=O)C(C)C)cc4)cnc3N)on2)cc1", "system": "human", "setting": "iv", "endpoint": "maximum tolerated dose", "result": "240 mg/m² twice weekly"}
{"SMILES": "Cc1nc2ccc(C)c(Sc3ccncc3)c2c(=O)[nH]1", "target or system": "TYMS", "endpoint": "Kd", "result": "~0.1 µM"}
{"SMILES": "CC(C)c1nc(CN(C)C(=O)N[C@H](C(=O)N[C@@H](Cc2ccccc2)C[C@H](O)[C@H](Cc2ccccc2)NC(=O)OCc2cncs2)C(C)C)cs1", "system": "human", "setting": "100 mg twice daily", "endpoint": "colchicine AUC increase", "result": "296%"}
{"SMILES": "CCCCCc1cc(O)c2c(c1)OC(C)(C)c1ccc(C)cc1-2", "target or system": "CYP1A2, human", "assay": "enzyme activity, inhibitor", "system": "human liver microsomes", "setting": "10 µM", "endpoint": "inhibition", "result": "inhibited"}
{"SMILES": "O=C(NC(=O)c1c(F)cccc1F)Nc1cc(Cl)c(OC(F)(F)C(F)F)c(Cl)c1", "target or system": "CYP2C19", "assay": "inhibitor", "setting": "Tox21 screening", "endpoint": "IC50", "result": "41.6 ± 33 µM"}
{"SMILES": "CCN(CC)C(=O)[C@@H]1C=C2c3cccc4c3c(cn4C(=O)C3CC3)C[C@H]2N(C)C1", "assay": "head-twitch response, agonist", "system": "C57BL/6J mice male", "setting": "literature value", "endpoint": "ED50", "result": "430 nmol/kg"}
{"SMILES": "Cc1cc(-c2nccc3c2ccn3CC(=O)Nc2ccc(-c3cnccn3)cn2)ccn1", "system": "dog", "setting": "concentration not given, 1 month", "endpoint": "NOEL", "result": "30 mg/kg/day"}
{"SMILES": "CC(C)C[C@H](NC(=O)CNC(=O)c1cc(Cl)ccc1Cl)B(O)O", "assay": "population PK estimate", "endpoint": "fraction absorbed", "result": 0.58}
{"SMILES": "C[C@@H]1CC[C@H]2[C@@H](C)C(=O)O[C@@H]3O[C@@]4(C)CC[C@@H]1[C@]32OO4", "target or system": "CEM/ADR5000 P-gp overexpressing multidrug-resistant", "assay": "cell viability", "endpoint": "IC50", "result": "26.9 ± 4.4 µM"}
{"SMILES": "NS(=O)(=O)OC[C@@H]1C[C@@H](n2ccc3c(N[C@H]4CCc5ccccc54)ncnc32)C[C@@H]1O", "system": "human adult patients", "setting": "single agent", "endpoint": "MTD", "result": "60 mg/m²"}
{"SMILES": "C=C[C@@H]1C[C@]1(NC(=O)[C@@H]1C[C@@H]2CN1C(=O)[C@H](C(C)(C)C)NC(=O)O[C@@H]1C[C@H]1CCCCCc1nc3ccc(OC)cc3nc1O2)C(=O)NS(=O)(=O)C1CC1", "target or system": "human CYP3A4", "assay": "reversible inhibitor", "system": "human liver microsomes", "setting": "added: midazolam", "endpoint": "IC50", "result": "73 µM"}
{"SMILES": "C[C@@H]1COCCN1c1cc(C2([S@](C)(=N)=O)CC2)nc(-c2cc[nH]c3nccc2-3)n1", "system": "human", "endpoint": "maximum tolerated dose", "result": "160 mg twice daily"}
{"SMILES": "COc1cc(C[C@H]2C(=O)OC[C@@H]2Cc2ccc(OC)c(OC)c2)ccc1O", "target or system": "influenza virus", "assay": "viral replication, plaque reduction", "endpoint": "IC50", "result": "74 µM"}
{"SMILES": "CSC[C@H]1CN(Cc2c[nH]c3c(N)ncnc23)C[C@@H]1O", "target or system": "Aminodeoxyfutalosine nucleosidase (Helicobacter pylori, UniProt Q9ZMY2)", "setting": "tight complex after isomerization", "endpoint": "Ki", "result": "0.089 ± 0.019 nM"}
{"note": "A few entries again (mixed results):"}
{"SMILES": "C=C(C)[C@@H]1CCC(C)=C[C@H]1c1c(O)cc(CCCCC)cc1O", "target or system": "CYP2C19, human", "assay": "enzyme activity, inhibitor", "system": "human liver microsomes", "setting": "10 µM", "endpoint": "inhibition", "result": "inhibited"}
{"SMILES": "O=C(O)C(F)(F)C(F)(F)C(F)(F)C(F)(F)C(F)(F)C(F)(F)C(F)(F)C(F)(F)C(F)(F)F", "target or system": "Estrogen receptor (ESR1, Homo sapiens, UniProt P03372)", "assay": "antagonist, beta-lactamase reporter", "setting": "Tox21 screen", "endpoint": "IC50", "result": "17.4 µM"}
{"SMILES": "CN(Cc1ccc(S(=O)(=O)N2CCOCC2)cc1)c1ccc2c3c(cccc13)C(N)=N2", "target or system": "TYMS", "endpoint": "Kd", "result": "0.012 µM"}
